{"data": "Earlier results as cited in several papers", "note": "Compare with care: the assays were run in different laboratories. ± marks the error that the study gave."}
{"SMILES": "CC1(C)CCC(CN2CCN(c3ccc(C(=O)NS(=O)(=O)c4ccc(NCC5CCOCC5)c([N+](=O)[O-])c4)c(Oc4cnc5[nH]ccc5c4)c3)CC2)=C(c2ccc(Cl)cc2)C1", "system": "human, AML", "conditions": "dose not given, monotherapy, sample B patients", "quantity": "median duration of response", "value": "48 days"}
{"SMILES": "Nc1cc(C(F)(F)F)c(-c2nc(N3CCOCC3)nc(N3CCOCC3)n2)cn1", "target or system": "A549", "quantity": "GI50", "value": "624 nM"}
{"SMILES": "C[C@H](Cn1cnc2c(N)ncnc21)OCP(=O)(O)O", "target or system": "hepatitis B virus", "assay": "measured: HBV DNA", "system": "human HBeAg-negative patients", "conditions": "dose not given, week 4, after discontinuation", "quantity": "virologic relapse", "value": "34%"}
{"SMILES": "COc1ccccc1Oc1cccc(CN2CCC3(CC2)C(=O)NCN3CCc2ccccc2)c1", "target or system": "human CCR8 H283A mutant (TM7)", "assay": "IP accumulation, agonist", "quantity": "EC50", "value": "24 nM"}
{"SMILES": "CC(C)(O/N=C(\\C(=O)N[C@@H]1C(=O)N2C(C(=O)[O-])=C(C[n+]3ccccc3)CS[C@H]12)c1csc(N)n1)C(=O)O", "target or system": "Enterobacter cloacae", "system": "clinical isolate RKI-No_33/16", "quantity": "MIC", "value": "4 µg/mL"}
{"SMILES": "COC[C@@H](c1ccc(C(F)(F)F)cc1)N1CCN(C2(C)CCN(C(=O)c3c(C)ncnc3C)CC2)C[C@@H]1C", "system": "human, treatment-experienced HIV infected", "conditions": "associated with favourable outcome", "quantity": "target trough concentration", "value": "> 100 ng/mL"}
{"SMILES": "O=C(NCc1ccc(C(F)(F)F)cc1CCc1ccccc1)Nc1cccc2[nH]ncc12", "target or system": "TRPV1", "assay": "calcium flux, antagonist", "system": "HEK293", "conditions": "added: capsaicin", "quantity": "IC50", "value": "8 nM"}
{"SMILES": "Cc1c(C#N)cccc1[C@@H](C)Nc1nnc(C)c2cnc(N3CCOCC3)cc12", "target or system": "NCI-H1435", "assay": "ERK phosphorylation, In-Cell Western, measured: phospho-ERK", "quantity": "IC50", "value": "89.3 ± 6.5 nM"}
{"SMILES": "O=C(NCC(Cc1ccccc1)c1ccc(F)cc1)Nc1cccc2cnccc12 (stereo not drawn)", "target or system": "TRPV1", "assay": "calcium flux, antagonist", "system": "HEK293", "conditions": "added: capsaicin", "quantity": "IC50", "value": "5 nM"}
{"SMILES": "COc1ccccc1Oc1cccc(CN2CCC(O)(c3ccccc3C(=O)O)CC2)c1", "target or system": "human CCR8 Y114A mutant (TM3)", "assay": "IP accumulation, agonist", "quantity": "EC50", "value": "430 nM"}
{"SMILES": "CC(C)CN1CCN(c2nc3c(c(Nc4ccc(C(F)(F)F)cc4)n2)CCN(c2ncccc2C(F)(F)F)CC3)CC1", "target or system": "TRPV1", "assay": "calcium flux, antagonist", "system": "HEK293", "conditions": "added: capsaicin", "quantity": "IC50", "value": "11 nM"}
{"SMILES": "CCCCC(C)C(=O)O (stereo not drawn)", "target or system": "CALUX reporter cell lines", "assay": "reporter gene", "conditions": "cell-total, minimum across", "quantity": "EC10", "value": "4000 nM"}
{"SMILES": "C[C@@H]1CN(c2ncccc2C(F)(F)F)CCN1c1nc2ccc(C(C)(C)C)cc2[nH]1", "target or system": "TRPV1", "assay": "calcium flux, antagonist", "system": "HEK293", "conditions": "added: capsaicin", "quantity": "IC50", "value": "32.4 nM"}
{"SMILES": "COc1ccccc1Oc1cccc(CN2CCC(NC(=O)C3CC(=O)Nc4ccccc43)CC2)c1 (stereo not drawn)", "target or system": "human CCR8 Y114A mutant (TM3)", "assay": "IP accumulation, agonist", "quantity": "EC50", "value": "945 nM"}
{"SMILES": "CC1(C)S[C@@H]2[C@H](NC(=O)[C@H](N)c3ccccc3)C(=O)N2[C@H]1C(=O)O", "target or system": "Klebsiella pneumoniae", "system": "clinical isolate RKI-No_68/16", "quantity": "MIC", "value": "> 16 µg/mL"}
{"SMILES": "O=S(=O)(c1ccc(Nc2ncnc3sc(Nc4c(Cl)cccc4Cl)nc23)cc1)N1CCCC1", "target or system": "TRPV1", "assay": "calcium flux, antagonist", "system": "HEK293", "conditions": "added: capsaicin", "quantity": "IC50", "value": "1 nM"}
{"SMILES": "C[C@H]1COCCN1c1nc(-c2cnc(N)cc2C(F)F)nc(N2CCOCC2)n1", "target or system": "DLD-1", "quantity": "GI50", "value": "538 nM"}
{"SMILES": "Cc1cnc(N2CC3(CCOCC3)C2)c(C(=O)Nc2ccc(C(=O)N3CCc4cc(C(=O)Nc5c(C)cccc5F)sc4-c4ccccc43)cc2)c1", "target or system": "respiratory syncytial virus", "assay": "cytopathic effect", "system": "A2", "quantity": "IC90", "value": "0.000451 µg/mL"}
{"SMILES": "FC(F)(F)c1ccc(Nc2nc(N3CCN(C4CCCC4)CC3)nc3c2CCN(c2ncccc2C(F)(F)F)CC3)cc1", "target or system": "TRPV1", "assay": "calcium flux, antagonist", "system": "HEK293", "conditions": "added: capsaicin", "quantity": "IC50", "value": "15 nM"}
{"SMILES": "COc1ccccc1Oc1cccc(CN2CCC(NC(=O)C(CCN3CCCC3)c3ccccc3)CC2)c1 (stereo not drawn)", "target or system": "human CCR8 H283A mutant (TM7)", "assay": "IP accumulation, agonist", "quantity": "EC50", "value": "17 nM"}
{"SMILES": "O=C(Nc1cccc2cnccc12)NC1CCc2c(Cl)cccc2C1Cc1ccccc1 (stereo not drawn)", "target or system": "TRPV1", "assay": "calcium flux, antagonist", "system": "HEK293", "conditions": "added: capsaicin", "quantity": "IC50", "value": "16 nM"}
{"SMILES": "CCC(CC)C(=O)O", "target or system": "CALUX reporter cell lines", "assay": "reporter gene", "conditions": "cell-total, minimum across", "quantity": "EC10", "value": "41000 nM"}
{"SMILES": "COc1ccc(CC2c3ccc(OC)cc3CCC2NC(=O)Nc2cccc3cnccc23)cc1 (stereo not drawn)", "target or system": "TRPV1", "assay": "calcium flux, antagonist", "system": "HEK293", "conditions": "added: capsaicin", "quantity": "IC50", "value": "36 nM"}
{"SMILES": "CNC(C)C1CCC(N)C(OC2C(N)CC(N)C(OC3OCC(C)(O)C(NC)C3O)C2O)O1 (stereo not drawn)", "target or system": "Escherichia coli", "system": "clinical isolate RKI-No_330/16", "quantity": "MIC", "value": "2 µg/mL"}
{"note": "Repeated from above:"}
{"SMILES": "CNC(C)C1CCC(N)C(OC2C(N)CC(N)C(OC3OCC(C)(O)C(NC)C3O)C2O)O1 (stereo not drawn)", "target or system": "Escherichia coli", "system": "clinical isolate RKI-No_330/16", "quantity": "MIC", "value": "2 µg/mL"}
{"SMILES": "COc1ccccc1Oc1cccc(CN2CCC(O)(c3ccccc3C(=O)O)CC2)c1", "target or system": "human CCR8 Y114A mutant (TM3)", "assay": "IP accumulation, agonist", "quantity": "EC50", "value": "430 nM"}
